Assay results of several laboratories.
A part holds a random share of what one study measured. Substitutions count along the parent as printed.

Study 1
Target: Centromere-binding protein 1, full length, His-tagged (CBF1, Saccharomyces cerevisiae, UniProt P17106, residues 1-351)
UniProt P17106, sequence (whole entry, looked up): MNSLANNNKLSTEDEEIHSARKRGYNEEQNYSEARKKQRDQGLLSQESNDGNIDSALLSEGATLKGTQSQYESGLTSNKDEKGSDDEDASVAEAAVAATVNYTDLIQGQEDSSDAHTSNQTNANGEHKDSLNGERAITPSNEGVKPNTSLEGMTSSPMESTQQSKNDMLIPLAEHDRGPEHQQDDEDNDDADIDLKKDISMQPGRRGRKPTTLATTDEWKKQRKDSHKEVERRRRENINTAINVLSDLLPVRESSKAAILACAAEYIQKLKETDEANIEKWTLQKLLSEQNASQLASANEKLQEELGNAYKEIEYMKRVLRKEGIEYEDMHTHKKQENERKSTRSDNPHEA
Technique: competition protein-binding microarray
Molecule type: double-stranded DNA, one strand shown
Matrix: in vitro
Concentration: 2 µM
Notes: whole 60-bp probe, lowest competitor level
Together with: Pho4 competitor, 0.05 µM
Direction: higher = stronger binding
Measurement: fluorescence intensity
CCAAGCCTGTAAATCGGTGTGACGGACACCAGAATAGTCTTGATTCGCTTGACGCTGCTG: 66.5 a.u.
TGGAGGGTGTACTATCACATGCAGCCTTTGTTTCTAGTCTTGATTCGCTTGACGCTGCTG: 229 a.u.
CCCAGAGATATACCACACATGAGACTGAAAAAAGCAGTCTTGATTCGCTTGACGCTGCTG: 99.1 a.u.
AAAGCGGTAATTTGCGCCGTGGGTGCAGATATCTATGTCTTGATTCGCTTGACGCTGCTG: 67.5 a.u.
CGTCCTAGTGATTGCGAGGTGGGTGCCATGAGGAAGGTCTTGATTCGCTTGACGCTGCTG: 74.6 a.u.
GCACTAGTAGAATCGCACGTGTTGGGTTCCCCAAGTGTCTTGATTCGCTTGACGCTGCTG: 847 a.u.
CATACCCAACCTTGCACAGTGGGTGAAGATATTTGTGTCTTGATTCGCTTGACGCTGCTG: 71.7 a.u.
GGATCTTCTCTTCTTCACCGGCGAGATGGGCTGCGGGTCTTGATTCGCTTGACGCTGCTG: 71.3 a.u.

Study 2
Target: Max-binding protein MNT, bHLH-zipper, MAX partner unstated (MNT, Homo sapiens, UniProt Q99583, residues 220-300)
Technique: protein-binding microarray
Molecule type: double-stranded DNA, one strand shown
Matrix: in vitro
Concentration: not given
Notes: k-mer, scored over probes, only values ≥0.25
Direction: higher = stronger binding
Measurement: E-score
Construct (chain): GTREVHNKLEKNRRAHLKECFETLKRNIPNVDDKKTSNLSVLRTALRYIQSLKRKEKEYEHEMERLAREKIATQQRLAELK
ATACACGA: 0.256
GCATGAGA: 0.268
ACGAGGCT: 0.259
CGCCCGCC: 0.262
CCACGCAC: 0.379
GCATGTGA: 0.45
ATGACACG: 0.4
GTGTCAAC: 0.255

Study 3
Target: Prothrombin, mature alpha-thrombin (F2, Homo sapiens, UniProt P00734)
Technique: aptamer microarray, sandwich
Molecule type: DNA with 2'F-ANA
Matrix: in vitro
Concentration: 200 nM
Notes: whole 15-mer aptamer, many near background
Together with: Cy3 exosite-II aptamer, 400 nM
Direction: higher = stronger binding
Measurement: mean fluorescence intensity
Strand: GGTTGGTGTGGTTGG
2'F-ANA at 1 3 5 7 9 11 12: 103 a.u.
2'F-ANA at 5 6 9 12 13: 114 a.u.
2'F-ANA at 1 2 4 5 6 7 10 12 14 15: 49.4 a.u.
2'F-ANA at 1 2 3 5 6 8 11 13 15: 57.7 a.u.
2'F-ANA at 2 3 4 8 11 14: 354 a.u.
2'F-ANA at 2 6 7 8 11: 394 a.u.
2'F-ANA at 1 2 5 7 9 10 11: 51.3 a.u.
2'F-ANA at 4 6 7 9 10 11 14: 57 a.u.

Further values, each from its own experiment
Starting sequence: viral docking peptide; KKAKRRLFTISDS
T9A
normalised enrichment score (CCNB1, cyclin fold, Cln2 fusion (human); yeast growth competition, sequencing; yeast; weak parent motif; baseline: not given, higher = stronger binding): 1.33

A few entries again (study 1):
CGTCCTAGTGATTGCGAGGTGGGTGCCATGAGGAAGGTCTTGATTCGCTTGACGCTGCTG: 74.6 a.u.
GCACTAGTAGAATCGCACGTGTTGGGTTCCCCAAGTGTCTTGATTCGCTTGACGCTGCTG: 847 a.u.
CATACCCAACCTTGCACAGTGGGTGAAGATATTTGTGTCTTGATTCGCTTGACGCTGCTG: 71.7 a.u.
